Results collected from several papers.
Parts stem from different laboratories: compare values within a part only.
Sequence of UniProt P11802 (whole entry, looked up): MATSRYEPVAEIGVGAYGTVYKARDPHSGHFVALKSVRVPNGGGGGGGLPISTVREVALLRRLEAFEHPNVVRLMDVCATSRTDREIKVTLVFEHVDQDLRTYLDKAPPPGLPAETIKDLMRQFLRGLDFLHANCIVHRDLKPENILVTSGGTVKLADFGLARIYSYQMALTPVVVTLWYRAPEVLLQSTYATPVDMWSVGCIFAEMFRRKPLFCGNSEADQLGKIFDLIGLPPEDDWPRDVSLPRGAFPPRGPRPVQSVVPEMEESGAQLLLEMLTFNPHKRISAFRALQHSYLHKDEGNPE
Sequence of UniProt P53667 (whole entry, looked up): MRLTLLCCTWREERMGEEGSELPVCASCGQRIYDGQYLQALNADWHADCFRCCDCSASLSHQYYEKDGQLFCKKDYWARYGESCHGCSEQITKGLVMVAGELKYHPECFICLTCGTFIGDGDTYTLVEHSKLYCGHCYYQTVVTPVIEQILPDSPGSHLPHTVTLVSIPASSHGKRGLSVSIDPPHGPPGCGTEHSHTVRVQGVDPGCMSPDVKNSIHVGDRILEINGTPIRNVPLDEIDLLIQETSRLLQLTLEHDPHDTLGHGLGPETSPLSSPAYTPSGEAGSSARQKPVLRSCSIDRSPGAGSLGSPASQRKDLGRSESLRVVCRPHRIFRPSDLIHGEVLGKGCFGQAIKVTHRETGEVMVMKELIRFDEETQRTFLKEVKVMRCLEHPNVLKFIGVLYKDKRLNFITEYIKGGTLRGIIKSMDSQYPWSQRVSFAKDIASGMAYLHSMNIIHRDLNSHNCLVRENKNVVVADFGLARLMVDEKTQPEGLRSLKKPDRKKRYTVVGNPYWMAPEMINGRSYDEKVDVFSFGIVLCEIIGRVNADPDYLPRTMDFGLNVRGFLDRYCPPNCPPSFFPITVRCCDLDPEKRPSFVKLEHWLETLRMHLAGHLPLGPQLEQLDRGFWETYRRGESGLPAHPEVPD
Sequence of UniProt P30530 (whole entry, looked up): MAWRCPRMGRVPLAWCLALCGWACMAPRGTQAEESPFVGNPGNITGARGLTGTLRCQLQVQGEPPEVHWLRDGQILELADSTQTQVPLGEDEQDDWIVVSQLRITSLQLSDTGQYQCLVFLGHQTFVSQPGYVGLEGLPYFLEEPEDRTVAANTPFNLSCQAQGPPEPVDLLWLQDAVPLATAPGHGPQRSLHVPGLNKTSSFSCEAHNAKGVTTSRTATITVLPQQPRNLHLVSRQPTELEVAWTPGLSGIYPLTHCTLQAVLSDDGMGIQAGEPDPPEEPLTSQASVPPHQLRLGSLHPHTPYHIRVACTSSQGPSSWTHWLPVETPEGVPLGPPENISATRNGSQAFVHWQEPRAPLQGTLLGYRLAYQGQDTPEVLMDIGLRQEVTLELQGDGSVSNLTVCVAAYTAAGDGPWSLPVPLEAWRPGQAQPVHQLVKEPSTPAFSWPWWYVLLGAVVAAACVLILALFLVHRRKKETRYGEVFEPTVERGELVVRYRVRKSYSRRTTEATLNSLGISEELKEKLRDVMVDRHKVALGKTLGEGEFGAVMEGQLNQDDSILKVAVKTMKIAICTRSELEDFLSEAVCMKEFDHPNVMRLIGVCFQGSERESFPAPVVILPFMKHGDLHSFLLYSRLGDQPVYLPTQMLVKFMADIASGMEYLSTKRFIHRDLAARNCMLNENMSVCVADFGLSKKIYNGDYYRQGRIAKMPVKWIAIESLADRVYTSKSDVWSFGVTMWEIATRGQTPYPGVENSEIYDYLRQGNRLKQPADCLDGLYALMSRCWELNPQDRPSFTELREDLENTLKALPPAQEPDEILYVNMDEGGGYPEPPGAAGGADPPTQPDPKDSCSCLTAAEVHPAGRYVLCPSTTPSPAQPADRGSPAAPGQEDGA
Sequence of UniProt Q8NE63 (whole entry, looked up): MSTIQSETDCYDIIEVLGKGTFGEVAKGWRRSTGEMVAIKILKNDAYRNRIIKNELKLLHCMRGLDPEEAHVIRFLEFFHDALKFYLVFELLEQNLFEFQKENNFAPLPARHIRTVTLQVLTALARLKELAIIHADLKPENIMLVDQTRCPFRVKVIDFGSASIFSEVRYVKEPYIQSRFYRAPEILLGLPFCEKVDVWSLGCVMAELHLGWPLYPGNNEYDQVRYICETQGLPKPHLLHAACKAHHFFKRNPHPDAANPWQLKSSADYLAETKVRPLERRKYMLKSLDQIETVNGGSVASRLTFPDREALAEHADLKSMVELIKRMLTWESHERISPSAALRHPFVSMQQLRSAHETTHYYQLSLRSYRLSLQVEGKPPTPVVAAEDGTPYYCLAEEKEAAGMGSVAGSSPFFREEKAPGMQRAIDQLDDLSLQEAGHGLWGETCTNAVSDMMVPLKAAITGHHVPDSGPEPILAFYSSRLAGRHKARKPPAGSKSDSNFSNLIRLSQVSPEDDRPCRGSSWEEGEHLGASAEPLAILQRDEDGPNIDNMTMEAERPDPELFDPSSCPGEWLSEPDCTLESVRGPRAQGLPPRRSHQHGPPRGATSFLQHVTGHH
Sequence of UniProt Q8IU85 (whole entry, looked up): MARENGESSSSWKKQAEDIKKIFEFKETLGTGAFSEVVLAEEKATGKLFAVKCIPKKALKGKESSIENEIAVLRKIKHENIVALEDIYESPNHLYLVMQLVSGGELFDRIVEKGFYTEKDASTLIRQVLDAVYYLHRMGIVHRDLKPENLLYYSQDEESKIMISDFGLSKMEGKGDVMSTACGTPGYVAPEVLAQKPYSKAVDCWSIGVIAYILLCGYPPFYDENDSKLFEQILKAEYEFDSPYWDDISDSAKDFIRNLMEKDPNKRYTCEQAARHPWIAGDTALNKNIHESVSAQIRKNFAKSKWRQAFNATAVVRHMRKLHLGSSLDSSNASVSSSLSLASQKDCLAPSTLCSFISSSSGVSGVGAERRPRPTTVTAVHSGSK
Sequence of UniProt O43781 (whole entry, looked up): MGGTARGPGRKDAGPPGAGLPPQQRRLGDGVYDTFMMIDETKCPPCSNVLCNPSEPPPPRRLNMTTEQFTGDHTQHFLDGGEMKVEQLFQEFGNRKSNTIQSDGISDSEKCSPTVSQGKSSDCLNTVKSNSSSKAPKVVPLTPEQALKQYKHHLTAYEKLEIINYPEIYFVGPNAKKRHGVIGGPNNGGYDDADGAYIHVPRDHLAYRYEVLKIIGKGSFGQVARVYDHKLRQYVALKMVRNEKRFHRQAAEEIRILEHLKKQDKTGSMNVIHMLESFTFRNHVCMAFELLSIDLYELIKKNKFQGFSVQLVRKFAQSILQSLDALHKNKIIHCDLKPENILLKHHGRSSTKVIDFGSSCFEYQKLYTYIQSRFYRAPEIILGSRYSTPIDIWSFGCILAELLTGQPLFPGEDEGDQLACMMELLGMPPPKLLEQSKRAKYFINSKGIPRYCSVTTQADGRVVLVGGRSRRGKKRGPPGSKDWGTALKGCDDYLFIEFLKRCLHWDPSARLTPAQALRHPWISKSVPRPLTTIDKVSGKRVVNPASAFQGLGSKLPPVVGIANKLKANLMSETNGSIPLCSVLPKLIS
Sequence of UniProt P49137 (whole entry, looked up): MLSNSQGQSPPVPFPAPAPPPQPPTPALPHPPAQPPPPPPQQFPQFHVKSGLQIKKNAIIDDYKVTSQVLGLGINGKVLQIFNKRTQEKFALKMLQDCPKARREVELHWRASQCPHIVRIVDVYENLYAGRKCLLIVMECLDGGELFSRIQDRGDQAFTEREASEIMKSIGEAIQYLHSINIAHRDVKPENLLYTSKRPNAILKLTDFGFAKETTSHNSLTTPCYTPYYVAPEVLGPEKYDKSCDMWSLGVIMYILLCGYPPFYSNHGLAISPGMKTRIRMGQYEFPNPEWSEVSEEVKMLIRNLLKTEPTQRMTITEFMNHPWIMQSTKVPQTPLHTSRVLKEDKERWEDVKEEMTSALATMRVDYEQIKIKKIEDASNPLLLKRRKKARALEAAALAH
Sequence of UniProt P16234 (whole entry, looked up): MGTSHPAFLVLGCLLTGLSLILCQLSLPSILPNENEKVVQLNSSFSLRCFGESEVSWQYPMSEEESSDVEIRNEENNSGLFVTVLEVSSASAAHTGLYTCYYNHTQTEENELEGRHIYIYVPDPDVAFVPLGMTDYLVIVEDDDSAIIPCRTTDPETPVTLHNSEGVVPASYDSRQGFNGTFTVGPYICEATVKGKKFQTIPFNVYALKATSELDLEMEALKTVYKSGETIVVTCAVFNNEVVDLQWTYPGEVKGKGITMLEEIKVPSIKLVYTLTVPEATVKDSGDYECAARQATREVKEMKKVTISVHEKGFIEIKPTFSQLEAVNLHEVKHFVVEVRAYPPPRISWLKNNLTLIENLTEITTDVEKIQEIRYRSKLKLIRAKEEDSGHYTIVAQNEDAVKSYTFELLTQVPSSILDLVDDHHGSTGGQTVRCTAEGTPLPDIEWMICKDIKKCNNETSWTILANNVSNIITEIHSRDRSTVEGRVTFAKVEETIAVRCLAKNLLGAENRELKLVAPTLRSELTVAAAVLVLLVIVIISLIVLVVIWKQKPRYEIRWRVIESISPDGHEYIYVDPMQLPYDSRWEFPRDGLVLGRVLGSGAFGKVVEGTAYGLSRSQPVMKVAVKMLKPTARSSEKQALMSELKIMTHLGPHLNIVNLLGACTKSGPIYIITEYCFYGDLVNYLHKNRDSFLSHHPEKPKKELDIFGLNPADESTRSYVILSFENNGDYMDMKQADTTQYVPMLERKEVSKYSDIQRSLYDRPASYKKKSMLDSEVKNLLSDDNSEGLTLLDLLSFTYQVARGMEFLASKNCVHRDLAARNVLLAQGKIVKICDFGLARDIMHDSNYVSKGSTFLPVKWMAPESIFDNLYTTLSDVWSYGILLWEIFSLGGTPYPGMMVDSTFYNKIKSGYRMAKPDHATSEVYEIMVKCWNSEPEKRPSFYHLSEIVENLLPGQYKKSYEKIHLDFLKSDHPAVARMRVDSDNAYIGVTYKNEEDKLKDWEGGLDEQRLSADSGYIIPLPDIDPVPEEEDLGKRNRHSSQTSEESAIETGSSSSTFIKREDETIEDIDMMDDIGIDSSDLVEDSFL

Series 1
SMILES: Nc1nc(Nc2ccc(S(N)(=O)=O)cc2)nn1C(=O)c1c(F)cccc1F
Effect on: enzyme activity
Mode: inhibitor
Tested at: 0.5 µM
Relative to: control
Cyclin-dependent kinase 4, with cyclin D3 (CDK4, Homo sapiens, UniProt P11802) — remaining activity: 34.7%.
PHKG1 (Homo sapiens, UniProt Q16816) — remaining activity: 102%.
EPHB4 (Homo sapiens, UniProt P54760) — remaining activity: 81%.
The remaining activity was 48.5% (STK16 (Homo sapiens, UniProt O75716)).
It gave 98% for remaining activity (MAPKAPK3 (Homo sapiens, UniProt Q16644)).
The remaining activity was 67.7% (HIPK4 (Homo sapiens, UniProt Q8NE63)).
Cyclin-dependent kinase 6, with cyclin D3 (CDK6, Homo sapiens, UniProt Q00534) — remaining activity: 36.2%.
For DYRK3 (Homo sapiens, UniProt O43781): remaining activity read 101%.
AXL (Homo sapiens, UniProt P30530) — remaining activity: 94.2%.
For HIPK2 (Homo sapiens, UniProt Q9H2X6): remaining activity read 72.8%.
For CAMK2B (Homo sapiens, UniProt Q13554): remaining activity read 99.7%.
The remaining activity was 96.5% (SRMS (Homo sapiens, UniProt Q9H3Y6)).
EPHB1 (Homo sapiens, UniProt P54762) — remaining activity: 84.1%.
The remaining activity was 92.3% (PDPK1 (Homo sapiens, UniProt O15530)).
The remaining activity was 83.9% (STK17A (Homo sapiens, UniProt Q9UEE5)).
For EPHA4 (Homo sapiens, UniProt P54764): remaining activity read 91.3%.
The remaining activity was 103% (TSSK2 (Homo sapiens, UniProt Q96PF2)).
WNK3 (Homo sapiens, UniProt Q9BYP7) — remaining activity: 98.3%.

Series 2
Cell line: HaCaT
Tested at: 100 µM
Time: 60 h
`C=C1CC[C@@H]2[C@](C)(CO)[C@H](O)CC[C@@]2(C)[C@@H]1C/C=C1/C(=O)OC[C@H]1O` has a viability of 18.8%.
The viability of `CC(=O)SCC(Cc1ccccc1)C(=O)NCC(=O)OCc1ccccc1` (stereo not shown) is reported as 146%.
The viability of `CCOC(=O)N[C@@H]1CC[C@@H]2[C@@H](C1)C[C@H]1C(=O)O[C@H](C)[C@H]1[C@H]2/C=C/c1ccc(-c2cccc(F)c2)cn1` is reported as 116%.
With `Cc1ccc(/C(=C\CN2CCCC2)c2ccccn2)cc1` the viability was 130%.
With `CC1CCC(C(C)C)C(O)C1` (racemic) the viability was 143%.
For `CCOc1cc(CC(=O)N[C@@H](CC(C)C)c2ccccc2N2CCCCC2)ccc1C(=O)O`, the viability was 121%.
`Cn1cnc2c1c(=O)[nH]c(=O)n2C` has a viability of 130%.

Series 3
Compound: O=C(NCc1ncc(C(F)(F)F)cc1Cl)c1ccc2c(c1)C1(CCS(=O)(=O)CC1)[C@H](C1CC1)N2S(=O)(=O)c1ccc(F)cc1
Technique: competition with immobilised ligand
Tested at: 1 µM
The remaining binding was 100% (STK24 (Homo sapiens, UniProt Q9Y6E0); cell-free assay).
It gave 89% for remaining binding (ANKK1 (Homo sapiens, UniProt Q8NFD2); cell-free assay).
For PRKX (Homo sapiens, UniProt P51817); cell-free assay: remaining binding read 88%.
The remaining binding was 85% (CAMK1D (Homo sapiens, UniProt Q8IU85); cell-free assay).
The remaining binding was 100% (LIM domain kinase 1 (LIMK1, Homo sapiens, UniProt P53667); cell-free assay).
For CDK4 (Homo sapiens, UniProt P11802); cell-free assay: remaining binding read 86%.
It gave 100% for remaining binding (MAPKAPK2 (Homo sapiens, UniProt P49137); cell-free assay).
For PDGFRA (Homo sapiens, UniProt P16234); cell-free assay: remaining binding read 90%.
It gave 98% for remaining binding (RET (Homo sapiens, UniProt P07949); cell-free assay).
The remaining binding was 100% (FER (Homo sapiens, UniProt P16591); cell-free assay).
The remaining binding was 91% (Tyrosine-protein kinase ABL1, phosphorylated (ABL1, Homo sapiens, UniProt P00519, M351T); cell-free assay).
For CSNK1A1 (Homo sapiens, UniProt P48729); cell-free assay: remaining binding read 92%.
The remaining binding was 100% (STK11 (Homo sapiens, UniProt Q15831); cell-free assay).
RIOK3 (Homo sapiens, UniProt O14730); cell-free assay — remaining binding: 69%.
It gave 100% for remaining binding (DYRK1B (Homo sapiens, UniProt Q9Y463); cell-free assay).
The remaining binding was 98% (ACVRL1 (Homo sapiens, UniProt P37023); binding).
For GRK3 (Homo sapiens, UniProt P35626); cell-free assay: remaining binding read 99%.
For CAMK2A (Homo sapiens, UniProt Q9UQM7); cell-free assay: remaining binding read 94%.
It gave 86% for remaining binding (CSNK1G1 (Homo sapiens, UniProt Q9HCP0); cell-free assay).
The remaining binding was 83% (MAP3K6 (Homo sapiens, UniProt O95382); cell-free assay).

Series 4
SMILES: CCN(c1nc(N)c(C(=O)N=C(N)N)nc1Cl)C(C)C
Effect on: β-arrestin recruitment
Mode: agonist
Technique: PRESTO-Tango
Tested at: 10 µM
Relative to: untreated
It gave 0.63 fold for “fold over basal” (F2RL3 (Homo sapiens, UniProt Q96RI0)).
For G-protein coupled receptor family C group 5 member D (GPRC5D, Homo sapiens, UniProt Q9NZD1): “fold over basal” read 0.36.
It gave 0.46 for “fold over basal” (HTR2C (Homo sapiens, UniProt P28335, I156V/I160V)).
GPR37 (Homo sapiens, UniProt O15354) — “fold over basal”: 1.18.
The “fold over basal” was 0.94 (G-protein coupled receptor 161 (GPR161, Homo sapiens, UniProt Q8N6U8)).
RXFP3 (Homo sapiens, UniProt Q9NSD7) — “fold over basal”: 1.85.
The “fold over basal” was 0.73 (P2Y purinoceptor 2 (P2RY2, Homo sapiens, UniProt P41231)).
The “fold over basal” was 0.78 (S1PR1 (Homo sapiens, UniProt P21453)).
The “fold over basal” was 0.9 (MRGPRD (Homo sapiens, UniProt Q8TDS7)).
It gave 0.33 for “fold over basal” (SSTR2 (Homo sapiens, UniProt P30874)).

Excerpt of the above (series 4):
For G-protein coupled receptor family C group 5 member D (GPRC5D, Homo sapiens, UniProt Q9NZD1): “fold over basal” read 0.36.
It gave 0.46 for “fold over basal” (HTR2C (Homo sapiens, UniProt P28335, I156V/I160V)).
GPR37 (Homo sapiens, UniProt O15354) — “fold over basal”: 1.18.
The “fold over basal” was 0.94 (G-protein coupled receptor 161 (GPR161, Homo sapiens, UniProt Q8N6U8)).
